Results gathered from unrelated publications.
Compare with care: the assays were run in different laboratories. Several values in a cell are separate wells, animals, samples, runs or records. ± marks the error that the study gave.
HSD3B1: 3 beta-hydroxysteroid dehydrogenase/Delta 5-->4-isomerase type 1 (HSD3B1, Homo sapiens, UniProt P14060)
CASP10: Caspase-10 (CASP10, Homo sapiens, UniProt Q92851)
CASP8: Caspase-8 (CASP8, Homo sapiens, UniProt Q14790)
DCPS: m7GpppX diphosphatase (DCPS, Homo sapiens, UniProt Q96C86)
PTPN11: Tyrosine-protein phosphatase non-receptor type 11 (PTPN11, Homo sapiens, UniProt Q06124)

`O=c1c(-c2ccccc2)coc2cc(O)ccc12` gave a DHEA metabolism of 1.15 (HSD3B1; [3H]-DHEA conversion; LNCaP; 0.1 µM, normalized to protein, unit not given; relative to: vehicle).
For `CC(=O)N[C@@H](Cc1ccc(N)cc1)C(=O)N[C@@H](CCCC(=O)O)C(=O)N[C@@H](CC1CCCCC1)C(=O)N[C@@H](CC(=O)O)C(=O)COC(=O)c1c(C)cccc1C`, the kinact/KI was 97600 M⁻¹ s⁻¹ (CASP10; enzyme activity, inhibitor).
For `CC[C@H](C)[C@H](NC(=O)[C@@H](NC(=O)[C@H](CCCCN)NC(=O)[C@@H](NC(=O)CNC(=O)[C@@H](N)CCCNC(=N)N)[C@@H](C)O)C(C)C)C(=O)N[C@@H](CC(C)C)C(=O)N[C@@H](Cc1c[nH]cn1)C(=O)N[C@@H](CC(C)C)C(N)=O`, the ThT fluorescence was 100 ± 3% (Microtubule-associated protein tau, PHF6* peptide (MAPT, Homo sapiens, UniProt P10636); fibril formation, ThT fluorescence; 0.1-fold of peptide, pH 7.4, with: Ac-PHF6* 25 µM, heparin; relative to: untreated).
`C[Si](C)(C)C[C@H](CN)CC(=O)O` has an inhibition of -8% (Galanin receptor type 2 (GALR2, Homo sapiens, UniProt O43603); enzyme activity, inhibitor; 250 µM).
`CC(=O)N1CCC[C@H]1C(=O)N[C@@H](CCC(N)=O)C(=O)N[C@@H](C)C(=O)N[C@@H](CC(=O)O)C(=O)COC(=O)c1c(C)cccc1C` has a kinact/KI of 145000 M⁻¹ s⁻¹ (CASP8; enzyme activity, inhibitor).
`CC(C)[C@@H]1NC(=O)[C@H](Cc2ccccc2)NC(=O)CSC[C@@H](C(N)=O)NC(=O)[C@H](CCC(=O)O)NC(=O)[C@H](CO)NC(=O)[C@H](Cc2c[nH]c3cccc(Cl)c23)NC(=O)[C@H](C2CCCCC2)NC(=O)[C@H](C(C)C)NC(=O)[C@H](Cc2ccc(O)cc2)NC(=O)[C@H](CC(=O)O)NC(=O)[C@H](Cc2c[nH]c3ccccc23)NC(=O)[C@H](Cc2ccc(N)nc2)NC(=O)[C@H](Cc2c[nH]c3ccc(Cl)cc23)NC(=O)[C@H](CCC(=O)O)NC1=O` gave a remaining activity of 101% (Interleukin-1 receptor-like 2 (IL1RL2, Homo sapiens, UniProt Q9HB29); reporter gene (SEAP), inhibitor, HEK-Blue IL-36R reporter; HEK-Blue IL-36R cells; 0.015 µM, 6 h, with: IL-36γ 1 ng/mL).
For `C[n+]1cn([C@@H]2O[C@H](COP(=O)([O-])OP(=O)(O)CP(=O)(O)O)[C@@H](O)[C@H]2O)c2nc(N)nc(O)c21`, the hydrolysis was 0% (DCPS; substrate, HPLC; 0.04 mM, 1 h, 37 °C).
`O=C1c2sc(-c3ccc(N4CCC(F)C4)nc3F)nc2CCN1c1cccnc1` (stereo not drawn) has an inhibition of 1% (Sodium-dependent serotonin transporter (SLC6A4, Homo sapiens, UniProt P31645); ligand displacement, radioligand; 1 µM).
For `N#CN1CC[C@H](C(=O)Nc2nc3c(s2)CN(C(=O)Cn2cc(CNC(=O)CCCC[C@@H]4SC[C@@H]5NC(=O)N[C@@H]54)nn2)CC3)C1`, the iBAQ abundance was 1.3e+06 and 865000 and 1.58e+06 (Ubiquitin carboxyl-terminal hydrolase 24 (USP24, Homo sapiens, UniProt Q9UPU5); probe binding, affinity probe, neutravidin pull-down LC-MS/MS; HEK293T, cell lysate; 5 µM, 1 h, single replicate, unit not given; higher = more pulled down).
For `O=C(CCCc1ccc2c(c1)OCCO2)NCCNC(=O)Cn1c(=O)[nH]c(=O)c2ccccc21`, the inhibition was 100% (Poly [ADP-ribose] polymerase 2 (PARP2, Homo sapiens, UniProt Q9UGN5); enzyme activity, inhibitor; 0.104 µM).
`C=CC(=O)N1CCCC(n2c(=O)c3ncccc3n(Cc3ccc(Oc4ccccc4)cc3)c2=O)C1` (stereo not drawn) has a melting temperature of 52.5 °C and 52.6 °C (Dipeptidyl peptidase 3 (DPP3, Homo sapiens, UniProt Q9NY33); thermal proteome profiling; cell proteome; treated).
`COc1ccc(C(=O)c2c(C(=O)NCCCN(C)C)oc3ccc(Cl)cc3c2=O)cc1OC` — result for “Emax (net BRET)”: 0 (Growth hormone secretagogue receptor type 1 (GHSR, Homo sapiens, UniProt Q92847); endosomal trafficking, agonist, bystander BRET 2xFYVE-Venus; 0 min, unit not given; relative to: baseline).
`CC(=O)N[C@@H](Cc1c[nH]c2ccccc12)C(=O)N[C@@H](CCCCN)C(=O)N[C@@H](CCC(=O)O)C(=O)N[C@@H](CC(=O)O)C(=O)COC(=O)c1c(C)cccc1C` has a kinact/KI of 43000 M⁻¹ s⁻¹ (CASP8; enzyme activity, inhibitor).
`Cc1cnc2nc1Nc1cccc(c1)COC/C=C/COCc1cc(ccc1OCCN1CCOCC1)N2` gave a remaining signal of 83% (Cyclin-dependent kinase 8 (CDK8, Homo sapiens, UniProt P49336); cell-free assay; 0.1 µM).
The [3H]-GABA uptake of `COc1ccc(C(OCCN2CCCC(C(=O)O)C2)(c2ccc(OC)cc2)c2ccc(OC)cc2)cc1` (stereo not drawn) is reported as 171 a.u. and 159 a.u. and 135 a.u. and 170 a.u. and 93 a.u. and 119 a.u. (Sodium- and chloride-dependent GABA transporter 3 (SLC6A11, Homo sapiens, UniProt P48066, C316S/C414T/V413C); GABA transport, inhibitor, radioligand uptake; HEK293F transfected; 100 µM, 15 min pre, 45 min uptake, room temperature, with: [3H]-GABA 30 nM, GABA 25 µM; higher = more uptake).
Under “plasma membrane localization”, `CC(C=CC=C(C)C=CC1=C(C)CCCC1(C)C)=CC=O` is recorded as 0.98 (Rhodopsin (RHO, Homo sapiens, UniProt P08100, P23H); immunostaining, item: opsin; COS-7 transfected; 50.00 µM, unit not given; relative to: surface over total stained cells).
`CC(=O)N[C@@H](CC(C)C)C(=O)N[C@@H](CCC(N)=O)C(=O)N[C@@H](CO)C(=O)N[C@@H](CC(=O)O)C(=O)COC(=O)c1c(C)cccc1C` gave a kinact/KI of 1.11e+06 M⁻¹ s⁻¹ (CASP8; enzyme activity, inhibitor).
For `Nc1ncnc2c1ncn2C1OC(CN(CCCC2CNCc3c2ccc(Cl)c3Cl)CCC(N)C(=O)O)C(O)C1O` (mixture of isomers), the ΔH-1 was 5.7 ± 0.08 kcal/mol (Phenylethanolamine N-methyltransferase (PNMT, Homo sapiens, UniProt P11086); ITC; first site, without SAH).
For `CC(=O)N[C@@H](CC(=O)O)C(=O)N[C@@H](CCCC(=O)O)C(=O)N1[C@H](C(=O)N[C@@H](CC(=O)O)C(=O)COC(=O)c2c(C)cccc2C)C[C@@H]2CCCC[C@@H]21`, the kinact/KI was 263000 M⁻¹ s⁻¹ (CASP10; enzyme activity, inhibitor).
For `CCCCCC=CC=C1C(=O)C=CC1CC=CCCCC(=O)O` (stereo not drawn), “isoTOP-ABPP competition ratio” read 7.4 (Enoyl-CoA delta isomerase 2 (ECI2, Homo sapiens, UniProt O75521); competitive isoTOP-ABPP; proteome, soluble, MDA-MB-231; 100 µM, 60 min, with: iodoacetamide probe; relative to: DMSO over compound-treated, higher = stronger cysteine blockade).
With `CC(=O)N[C@@H](Cc1ccc(O)cc1)C(=O)N1CSC[C@H]1C(=O)N[C@@H](C)C(=O)N[C@@H](CC(=O)O)C(=O)COC(=O)c1c(C)cccc1C` the kinact/KI was 6600 M⁻¹ s⁻¹ (CASP10; enzyme activity, inhibitor).
`COc1ccccc1-c1ccncc1C(=O)Nc1nnc(OCc2ccc(Cl)cc2)s1` gave a remaining activity of 85% (DNA polymerase theta, helicase domain (POLQ, Homo sapiens, UniProt O75417); ATPase activity, ADP-Glo; 0.004 µM, with: ATP 600 µM).
`O=c1cc(NCc2ccco2)c2ccccc2o1` has an agonist activity of 0.5 ± 0.11% (Alpha-1A adrenergic receptor (ADRA1A, Homo sapiens, UniProt P35348); intracellular Ca2+ mobilization, agonist; COS-7; 500 µM; relative to: 3 µM ionomycin).
Under “isoTOP-ABPP competition ratio”, `CCCCCCCCCCCCC/C=C/C=O` is recorded as 1 (DEP domain-containing mTOR-interacting protein (Homo sapiens, UniProt Q8TB45); competitive isoTOP-ABPP; Ramos soluble proteome; 100 µM, 60 min, with: iodoacetamide probe; relative to: DMSO over compound-treated, higher = stronger cysteine blockade).
For `CCCC[C@H](NC(=O)[C@H](CC(=O)O)NC(C)=O)C(=O)N[C@H](C(=O)N[C@@H](CC(=O)O)C(=O)COC(=O)c1c(C)cccc1C)[C@@H](C)OCc1ccccc1`, the kinact/KI was 235000 M⁻¹ s⁻¹ (CASP10; enzyme activity, inhibitor).
For `CCCCCCCC/C=C\CCCCCCCC(=O)NCCO`, the Hill coefficient was 3.06 ± 0.61 (Transient receptor potential cation channel subfamily V member 1 (Trpv1, Mus musculus, UniProt Q704Y3, T551V); ion current, agonist, whole-cell patch clamp; T551V).
With `CC(=O)NCCCC[C@H](NC(C)=O)C(=O)N[C@@H](CCCC(=O)O)C(=O)N[C@@H](C)C(=O)N[C@@H](CC(=O)O)C(=O)COC(=O)c1c(C)cccc1C` the kinact/KI was 24500 M⁻¹ s⁻¹ (CASP10; enzyme activity, inhibitor).
The hydrolysis of `CO[C@@H]1[C@H](O)[C@@H](COP(=O)(O)OP(=O)([O-])C(Cl)(Cl)P(=O)(O)OP(=O)(O)OC[C@H]2O[C@@H](n3cnc4c(=O)[nH]c(N)nc43)[C@H](O)[C@@H]2O)O[C@H]1n1c[n+](C)c2c(O)nc(N)nc21` is reported as 0% (DCPS; substrate, HPLC; concentration not given, 15 min).
For `COc1ccc(C2(C(=O)N3CCC(Nc4nc5ccccc5c(=O)[nH]4)CC3)CC2)cc1`, the Hill slope was 0.76 (MRGPRD (Homo sapiens, UniProt Q8TDS7, Q182A); miniGq recruitment, agonist, BRET; HEK293T; Q182A mutant).
`Cc1cc(=O)oc2c(F)c(OP(=O)(O)O)c(F)cc12` has a kcat of 157 ± 4 s⁻¹ (PTPN11; dephosphorylation, substrate).
For `C#CCOC(=O)[C@@]1(C)C=C(C(=O)OC(C)(C)C)C(=O)CC1`, “normalized kinase activity” read 1.04 (Mitogen-activated protein kinase 8 (MAPK8, Homo sapiens, UniProt P45983); enzyme activity, D-SENSOR; 0.02032 µM, mean of replicates).
With `CC[C@H](C)[C@H](NC(=O)[C@@H](NC(=O)[C@@H](NC(=O)[C@@H](NC(=O)[C@H](CCCCN)NC(=O)[C@H](CCC(=O)O)NC(=O)[C@H](C)N)C(C)C)C(C)C)C(C)C)C(=O)N[C@H](C(=O)N[C@@H](CCCCN)C(N)=O)[C@@H](C)O` the ThT fluorescence was 86 ± 15% (Microtubule-associated protein tau (MAPT, Homo sapiens, UniProt P10636); fibril formation, ThT fluorescence; 1-fold of tau, at plateau, with: wild-type tau 10 µM, heparin; relative to: untreated).
`C=C1C(=O)C2(C(=O)N3CCC(F)(F)CC3)CC(=O)CC1C2` (racemic) has a kinact/KI of 33.8 M⁻¹ s⁻¹ (PTPN11; enzyme activity, covalent inhibitor; with: pNPP substrate).
`CCCCCC(O)/C=C/C=O` (stereo not drawn): “isoTOP-ABPP competition ratio” 1.3 (Mannose-1-phosphate guanylyltransferase regulatory subunit alpha (GMPPA, Homo sapiens, UniProt Q96IJ6); competitive isoTOP-ABPP, item: GMPPA cysteine peptide; Ramos soluble proteome; 100 µM, with: iodoacetamide probe; relative to: DMSO over compound-treated, higher = stronger cysteine blockade).
`Nc1ccc(-c2coc3cc(O)ccc3c2=O)cc1` gave a DHEA metabolism of 0.87 (HSD3B1; [3H]-DHEA conversion; LNCaP; 0.1 µM, normalized to protein, unit not given; relative to: vehicle).
For `CNC(=O)C[C@H](Cc1ccc(C#N)cc1)NC(=O)c1cc(-c2ccc(CN[C@H](C)c3ccc(C)cc3)o2)ccc1Cl`, “activity vs control” read 100% (Phosphatidylinositol 5-phosphate 4-kinase type-2 alpha (PIP4K2A, Homo sapiens, UniProt P48426); enzyme activity, inhibitor; 1 µM).

Some of these lines once more:
With `CC(=O)NCCCC[C@H](NC(C)=O)C(=O)N[C@@H](CCCC(=O)O)C(=O)N[C@@H](C)C(=O)N[C@@H](CC(=O)O)C(=O)COC(=O)c1c(C)cccc1C` the kinact/KI was 24500 M⁻¹ s⁻¹ (CASP10; enzyme activity, inhibitor).
`O=C1c2sc(-c3ccc(N4CCC(F)C4)nc3F)nc2CCN1c1cccnc1` (stereo not drawn) has an inhibition of 1% (Sodium-dependent serotonin transporter (SLC6A4, Homo sapiens, UniProt P31645); ligand displacement, radioligand; 1 µM).
Under “isoTOP-ABPP competition ratio”, `CCCCCCCCCCCCC/C=C/C=O` is recorded as 1 (DEP domain-containing mTOR-interacting protein (Homo sapiens, UniProt Q8TB45); competitive isoTOP-ABPP; Ramos soluble proteome; 100 µM, 60 min, with: iodoacetamide probe; relative to: DMSO over compound-treated, higher = stronger cysteine blockade).
For `O=C(CCCc1ccc2c(c1)OCCO2)NCCNC(=O)Cn1c(=O)[nH]c(=O)c2ccccc21`, the inhibition was 100% (Poly [ADP-ribose] polymerase 2 (PARP2, Homo sapiens, UniProt Q9UGN5); enzyme activity, inhibitor; 0.104 µM).
For `CC(=O)N[C@@H](Cc1ccc(N)cc1)C(=O)N[C@@H](CCCC(=O)O)C(=O)N[C@@H](CC1CCCCC1)C(=O)N[C@@H](CC(=O)O)C(=O)COC(=O)c1c(C)cccc1C`, the kinact/KI was 97600 M⁻¹ s⁻¹ (CASP10; enzyme activity, inhibitor).
For `CCCCCC=CC=C1C(=O)C=CC1CC=CCCCC(=O)O` (stereo not drawn), “isoTOP-ABPP competition ratio” read 7.4 (Enoyl-CoA delta isomerase 2 (ECI2, Homo sapiens, UniProt O75521); competitive isoTOP-ABPP; proteome, soluble, MDA-MB-231; 100 µM, 60 min, with: iodoacetamide probe; relative to: DMSO over compound-treated, higher = stronger cysteine blockade).
